Measured values gathered from unrelated publications.
Parts stem from different laboratories: compare values within a part only.

Sample 1 — technique: RNA Bind-n-Seq; molecule type: RNA; medium: in vitro; tested at: 1 µM; setting: whole 134-nt RNA, ends assumed; together with: 150 mM KCl; baseline: input library; direction: higher = stronger binding; measurement: log2 enrichment
Target: Ras GTPase-activating protein-binding protein 1, C-terminal RGG region (G3BP1, Homo sapiens, UniProt Q13283)
UniProt Q13283, sequence (whole entry, looked up): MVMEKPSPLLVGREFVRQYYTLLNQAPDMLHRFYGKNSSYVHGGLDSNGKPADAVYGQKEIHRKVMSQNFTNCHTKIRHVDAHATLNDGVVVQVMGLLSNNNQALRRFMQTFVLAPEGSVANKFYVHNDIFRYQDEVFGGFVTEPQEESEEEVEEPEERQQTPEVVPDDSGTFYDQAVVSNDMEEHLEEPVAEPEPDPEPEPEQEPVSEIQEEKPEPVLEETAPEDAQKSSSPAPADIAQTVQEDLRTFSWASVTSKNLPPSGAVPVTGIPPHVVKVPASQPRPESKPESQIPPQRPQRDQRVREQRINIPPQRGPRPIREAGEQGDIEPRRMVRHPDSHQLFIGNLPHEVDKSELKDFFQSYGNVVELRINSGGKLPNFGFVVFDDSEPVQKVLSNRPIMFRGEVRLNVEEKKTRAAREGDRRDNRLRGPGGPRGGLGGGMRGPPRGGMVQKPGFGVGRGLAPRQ
All sequences stand within: GGGAGUUCUACAGUCCGACGAUC … UGGAAUUCUCGGGUGUCAAGG
UGCAGGGUCUGGGUAGCAGCUGGGCUUCCAGCUUUCUCCUUGCACCUGACUUGGGCUUUUUUCUCCUCACAGGAUGGGCCUUGACGGCAU: -0.19
CUCAAGUCCUGUGCUACACAUCGUAUGUACCGAAUCGGGUGGGUGGGGUGGGGAAAGUAUUAUGUUACGCCGUUCGGAUCUGCACUUCCA: 1.36
GUCCUGUGCUACACAUCGUAUGUACCGAAUCGGGUUUUGGGGUUUUGGGGUUUUGGGGAAAGUAUUAUGUUACGCCGUUCGGAUCUGCAC: 0.68
UGAGAGGUGGAUUUUGUUUAUUUUUUUAGCUCAUUUCCAGGGGUGGGAAUUUUUUUUUAAUAUGUGUCAUGAAUAAAGUUGUUUUUGAAA: 2.8
UAACUUUAGAGGAGGAUCUGAUGGAUAUGGCAGUGGACGAGGAUUUGGGGAUGGCUAUAAUGGGUAUGGAGGAGGACCUGGAGGUGGCAA: -0.972
ACCAUGCAGGUGGGCAUCUUUGGGAAGUGGGGCAAGGGGGGGAUAGGGAGGGGGGUAACACUUUGGGAACAAGUGGUCCCAGGUCGUUUC: 2.63
AGUCCUGUGCUACACAUCGUAUGUACCGAAUCGGUUUUUGGGUUUUUGGGUUUUUGGGAAAGUAUUAUGUUACGCCGUUCGGAUCUGCAC: -1.35
CUGUGCUACACAUCGUAUGUACCGAAUCGGGCCCCCCCGGGCCCCCCCGGGGCCCCCCCGGGAAAGUAUUAUGUUACGCCGUUCGGAUCU: -2.4
GCAGGAAGUAAAAACAAAUAGAAAUGCUUCGGAUAGUGGCAGGGGUGGGGGUUGCUAAGGAAAGGGUGGGAUGGGAGUGGGUAAAGAGUU: 1.77
AACAGACAACACGCACCCACACAGACACAGAGGGAAGGGGUUGGGAUGGGGACAGGGUGCACAGCAGGGCGGGGUAGGACCCCAGCCCCU: -0.35
CCUCAAGUCCUGUGCUACACAUCGUAUGUACCGAAUCGGUGGUUUGGAAAGGAAAGUAUUAUGUUACGCCGUUCGGAUCUGCACUUCCAG: -0.677
CUCAAGUCCUGUGCUACACAUCGUAUGUACCGAAUCGGGCCGGGCCGGGCCGGAAAGUAUUAUGUUACGCCGUUCGGAUCUGCACUUCCA: -1.5
CCUCAAGUCCUGUGCUACACAUCGUAUGUACCGAAUCGGAAGGAAGGAAGGGAAAGUAUUAUGUUACGCCGUUCGGAUCUGCACUUCCAG: -0.72
CACAGACAACACGCACCCACACAGACACAGAGGGAAGGGGUUGGGAUGGGGACAGGGUGCACAGCAGGGCGGGGUAGGACCCCACCCCCU: -0.849

Sample 2 — technique: protein binding microarray; molecule type: double-stranded DNA, one strand shown; medium: in vitro; tested at: not given; baseline: not given; direction: higher = stronger binding; measurement: E-score
Target: Histone acetyltransferase KAT6A, winged helix 1, GST fusion (KAT6A, Homo sapiens, UniProt Q92794, residues 1-85)
Setting: 8-mer, flanks averaged, mean of 2 arrays, mostly near background
Target sequence (chain): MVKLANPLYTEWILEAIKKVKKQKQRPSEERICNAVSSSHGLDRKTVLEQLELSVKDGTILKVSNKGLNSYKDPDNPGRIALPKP
GAGGTCAA: -0.184
AGTCCGTC: 0.205
CAAGGACA: -0.175
ATTGAATC: -0.0379
CGTCTTTA: -0.0172
CCTTCAGC: -0.056
ATGTCCGG: 0.183
ATTCTCGG: 0.0746
ATCAAGTC: -0.0546
AGTGGGTA: -0.0969
ATCCGCGC: 0.386
GCGAGACC: 0.0546
ATCTTCCG: 0.113
CTGTGTAC: -0.00209
GTCCTGTA: 0.116
ATTACGTC: -0.0459
CGTAACGC: 0.349
CCAGAGCG: 0.123
AACTGGAC: -0.146

Sample 3 — technique: RNA Bind-n-Seq; molecule type: RNA; medium: in vitro; tested at: 365 nM; baseline: no-protein control; direction: higher = stronger binding; measurement: RBNS enrichment (R)
Target: RNA binding protein fox-1 homolog 2, RRM domain, GST-SBP tag (RBFOX2, Homo sapiens, UniProt O43251-10, residues 100-194)
Setting: natural RNA segment, single round, ends assumed
All sequences stand within: GGGAGUUCUACAGUCCGACGAUC … UGGAAUUCUCGGGUGCCAA
Target sequence (chain): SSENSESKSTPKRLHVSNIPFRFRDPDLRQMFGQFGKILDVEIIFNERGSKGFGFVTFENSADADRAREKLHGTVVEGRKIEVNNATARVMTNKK
UGAAGCCUCUCACUAACCCCUAGCUCCAGGAGUACCUCAGCAAUGUCCAUGGCUGAAGCUACACCCAGAGACAGAGCUGCAGAAUGAGAGAGACCCAGCCGGAGGGAUGC: 0.389
UGUCACUCCUCACCUGAGAGGAAGCAGUGGGUGGUCUGACUCUGCAGCCCAGAGACACAGGAGGCUUCAGGGACAGUGCCCUACUCUAGAAACACCUGCCACUCUAGAUA: 0.394
UCCCUGCCUUGUGGCAAAGGGGCCCCAAAAGAAAAGCUGCCCUUCCCCAAAUGUAAGGACCCAGGUACACUUUCACCCGUGGAAAGCAGUGUCUGUCGAGAGUCUGUUUC: 0.299
CUUUAGAGUGCAAGUAUCAUAAUUCCGUAUGAUAGAUGGGGCCUGGACACCCAUCUCAACAGGGUCACUUGGUAAUUAACAAUAGCCAUAUAAAUGCGGAUACAGGUUAC: 0.825
CCUCUCUCUUCUGUCUUUAGAAAGCUGUGAUCGUGCGUGCAAUUAUUUGAAAGGCAACAUAGUCAAUUAAGAAACCUGUAGUUGUUAAGGAAGAAAUUGUUGGCAAGAUA: 0.372
CUGCGGCCUGACUGACGCCUUUUGAUGCUCACGGGAAAUUUCUGCCCAGGAUCUCAGCCCCAGGCUGGUUGUUUCUACAAAUCUCUCUCAAAUGUAUUAUUUUGGUGACA: 0.296
AUACACUGAGGUGUAUUUUACAAUUGCUCCUUAAGAUUCUCAGUGGAGAUUAGGAGCAACACUGCACUUCUGAUAGAAAAAUGGCCUUGGAUCACUAAACUAGGUAGAGA: 0.587
CCAGCCCUCAGCUGUCAUCCUUCCUGCCCUGCCCCUCUGUUUUAUCCUGGUGGGUCUUGCCUGUGACAGCAGACCCUCCAAACCUAAGAGCCACCAGCACUUCAGAGCCA: 0.482
CAAAGUUAUGAUGAACUGCAAACAUCCAAAGGAUGUGAGAGUUUUUCUAUGUAUAAUGUUUUAUACACUUUUUAACUGGUUGCACUACCCAUGAGGAAUUCGUGGAAUGG: 0.76
AGGGACACUCCUACAGGUGAGAGUGUAUACCUUACUCUCUCAGAUAAGUGGCUGGACUUAUCUUGUGAUUUGGGGCCAUGGAAGAUUGGAAACAAAGAUUUUAAGCCUUC: 0.465
CUGAGGAUAUUAAUUCCCAUUAUAUAACCAUAAUUCUGUGACUUGUAAUAAACCAAGCUGUACAAUUUAGUUUAUAAUAGCAGUAUCUGAGCUGCUCCAAAAUAUAUAUA: 0.449
CAGCCGUUUCCCAAGCCUGGGCAAAGCCCACCUUUGCCUCUGGCCAGAAGCCUCCCUUCUGUGCACAGGAGCCAGUUUCACAGAUGGAGAAGAUGUCUCAGAUGAAGGGA: 0.683

Sample 4 — technique: universal PBM; molecule type: double-stranded DNA, one strand shown; medium: in vitro; tested at: 600 nM; direction: higher = stronger binding; measurement: E-score
Target: Sal-like protein 4, full length isoform A (SALL4, Homo sapiens, UniProt Q9UJQ4, residues 1-1053)
UniProt Q9UJQ4, sequence (whole entry, looked up): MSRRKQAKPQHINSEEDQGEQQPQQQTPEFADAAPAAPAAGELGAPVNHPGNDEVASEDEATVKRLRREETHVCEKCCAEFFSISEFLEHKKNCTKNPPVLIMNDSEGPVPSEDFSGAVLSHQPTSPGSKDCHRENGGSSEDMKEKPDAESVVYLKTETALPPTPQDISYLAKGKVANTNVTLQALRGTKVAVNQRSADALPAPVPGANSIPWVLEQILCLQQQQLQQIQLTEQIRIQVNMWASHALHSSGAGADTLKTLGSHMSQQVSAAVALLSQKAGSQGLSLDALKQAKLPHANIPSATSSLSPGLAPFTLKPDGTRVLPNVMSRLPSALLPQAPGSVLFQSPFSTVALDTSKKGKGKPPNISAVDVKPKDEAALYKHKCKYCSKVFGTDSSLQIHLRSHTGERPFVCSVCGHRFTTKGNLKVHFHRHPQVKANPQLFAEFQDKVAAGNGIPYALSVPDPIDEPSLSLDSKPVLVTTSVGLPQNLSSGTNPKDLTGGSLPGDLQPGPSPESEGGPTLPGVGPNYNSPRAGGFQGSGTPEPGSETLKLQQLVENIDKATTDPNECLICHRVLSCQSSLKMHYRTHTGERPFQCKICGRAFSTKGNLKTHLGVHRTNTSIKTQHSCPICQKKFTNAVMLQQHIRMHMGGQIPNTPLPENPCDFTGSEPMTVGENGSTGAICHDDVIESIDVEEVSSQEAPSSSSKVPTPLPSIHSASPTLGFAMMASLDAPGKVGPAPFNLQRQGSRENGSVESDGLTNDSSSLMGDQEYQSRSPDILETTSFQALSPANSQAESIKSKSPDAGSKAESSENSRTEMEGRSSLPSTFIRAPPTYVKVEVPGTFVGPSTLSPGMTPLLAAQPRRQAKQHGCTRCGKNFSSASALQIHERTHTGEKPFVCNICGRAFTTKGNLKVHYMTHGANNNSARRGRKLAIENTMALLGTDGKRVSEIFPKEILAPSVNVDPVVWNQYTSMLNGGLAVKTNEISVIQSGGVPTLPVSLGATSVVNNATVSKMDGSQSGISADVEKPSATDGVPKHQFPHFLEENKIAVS
Setting: 8-mer, flanks averaged, mean of replicates
CAGAGGGG: -0.351
ACTGGAAC: -0.0706
ACGAAAAT: 0.305
CAGCATAA: 0.251
CTCGCTTA: 0.123
AGGGAGAT: -0.169
TAGCGACA: 0.0983
ACGCACCG: -0.285
CTCTTCAG: -0.123
AACTACTG: 0.00283
GTGTTAAA: 0.184
CGTGTCCC: -0.259
AGTGCTTC: -0.0467
ATGACGAC: -0.0255
CAGTAGCC: -0.189
CCCACGGG: -0.352
AAACTATA: 0.258
AACCTTGA: 0.00838
CGGTATAA: 0.189
CTACTCAA: 0.215
AAATGTTA: 0.275
CAAAACTC: 0.0928
CGACAGTC: -0.26
GTTAGATA: 0.239
ATGCGACC: -0.0128

Sample 5 — technique: aptamer microarray, sandwich; molecule type: DNA with 2'F-ANA; medium: in vitro; tested at: 200 nM; together with: Cy3 exosite-II aptamer, 400 nM; direction: higher = stronger binding; measurement: mean fluorescence intensity; strand: GGTTGGTGTGGTTGG
Target: Prothrombin, mature alpha-thrombin (F2, Homo sapiens, UniProt P00734)
Setting: whole 15-mer aptamer, many near background
2'F-ANA at 1 2 4 6 8 9 10 13 14 15: 49.8 a.u.
2'F-ANA at 2 13 15: 344 a.u.
2'F-ANA at 1 5 6 8 10: 48.5 a.u.
2'F-ANA at 2 8 9 14 15: 148 a.u.
2'F-ANA at 1 2 3 5 8 9 10 11 12: 56 a.u.
2'F-ANA at 2 3 6 7 10 11 13: 296 a.u.
2'F-ANA at 2 5 6 15: 79.9 a.u.
2'F-ANA at 1 3 5 7 8 9 10 12 15: 141 a.u.
2'F-ANA at 3 4 6 7 9 11 13: 387 a.u.
2'F-ANA at 2 5 6 10 12 15: 49.5 a.u.
2'F-ANA at 1 2 7 8 9 10 11 12 13 14 15: 47.6 a.u.
2'F-ANA at 1 4 5 9 10 11 14: 43.5 a.u.
2'F-ANA at 1 2 4 6 7 9 13: 66.9 a.u.
2'F-ANA at 3 4 5 6 7 9 11 12 13 14: 62.4 a.u.
2'F-ANA at 8 9 11 12 13 15: 645 a.u.
2'F-ANA at 2 7 8 10 13 14 15: 77.3 a.u.
2'F-ANA at 4 5 6 7 9 11: 59.3 a.u.

A few entries again (sample 3):
CUUUAGAGUGCAAGUAUCAUAAUUCCGUAUGAUAGAUGGGGCCUGGACACCCAUCUCAACAGGGUCACUUGGUAAUUAACAAUAGCCAUAUAAAUGCGGAUACAGGUUAC: 0.825
CCUCUCUCUUCUGUCUUUAGAAAGCUGUGAUCGUGCGUGCAAUUAUUUGAAAGGCAACAUAGUCAAUUAAGAAACCUGUAGUUGUUAAGGAAGAAAUUGUUGGCAAGAUA: 0.372
CUGCGGCCUGACUGACGCCUUUUGAUGCUCACGGGAAAUUUCUGCCCAGGAUCUCAGCCCCAGGCUGGUUGUUUCUACAAAUCUCUCUCAAAUGUAUUAUUUUGGUGACA: 0.296
AUACACUGAGGUGUAUUUUACAAUUGCUCCUUAAGAUUCUCAGUGGAGAUUAGGAGCAACACUGCACUUCUGAUAGAAAAAUGGCCUUGGAUCACUAAACUAGGUAGAGA: 0.587
CCAGCCCUCAGCUGUCAUCCUUCCUGCCCUGCCCCUCUGUUUUAUCCUGGUGGGUCUUGCCUGUGACAGCAGACCCUCCAAACCUAAGAGCCACCAGCACUUCAGAGCCA: 0.482
CAAAGUUAUGAUGAACUGCAAACAUCCAAAGGAUGUGAGAGUUUUUCUAUGUAUAAUGUUUUAUACACUUUUUAACUGGUUGCACUACCCAUGAGGAAUUCGUGGAAUGG: 0.76
AGGGACACUCCUACAGGUGAGAGUGUAUACCUUACUCUCUCAGAUAAGUGGCUGGACUUAUCUUGUGAUUUGGGGCCAUGGAAGAUUGGAAACAAAGAUUUUAAGCCUUC: 0.465
CUGAGGAUAUUAAUUCCCAUUAUAUAACCAUAAUUCUGUGACUUGUAAUAAACCAAGCUGUACAAUUUAGUUUAUAAUAGCAGUAUCUGAGCUGCUCCAAAAUAUAUAUA: 0.449
